Results of several laboratories.
Each numbered part is a random draw from the data of one study; scales do not carry over between parts. Changes are numbered by the printed parent chain.

Sample 1
Target: Sal-like protein 4, full length isoform B (SALL4, Homo sapiens, UniProt Q9UJQ4-2, residues 1-616)
Technique: universal PBM
Molecule type: double-stranded DNA, one strand shown
Sample: in vitro
Concentration: not given
Notes: 8-mer, flanks averaged, mean of replicates
Direction: higher = stronger binding
Sequence	E-score
CGCCAAGA	-0.19
ATAAACCG	0.0827
AAGGGTTG	0.06
ACCGCAGA	-0.166
CCGCAGAC	-0.244
CGCTATTC	0.0422
AACACGGG	-0.197
GCAATGGC	-0.139
CGACAGTA	-0.0249
GAGGTACA	0.0261
GGACCCTA	-0.243
TGCAAAAA	0.237
AGTTTAAC	0.0545
CCGTGCTA	-0.15
AGGTCATA	0.163
CATCGCTA	0.0621
AACCAAGC	-0.119
CCTCGACC	-0.134
CAAAGGAG	0.0522
CCGCCATA	0.092
CGCACGCG	-0.299
CTGACAAG	0.0275
ATGTCACG	0.0278
CACTCCCA	-0.0479
GTTCCGGA	-0.152

Sample 2
Target: ABI1, truncated, D143A, DHFR fusion (Arabidopsis thaliana)
Technique: DHFR PCA, deep sequencing
Sample: yeast
Notes: methotrexate growth selection, single substitutions
Added: (+)-ABA 58 µM
Reference: wild-type fitted maximum
Direction: higher = stronger binding
Parent: PYL1, truncated, DHFR fusion (Arabidopsis thaliana); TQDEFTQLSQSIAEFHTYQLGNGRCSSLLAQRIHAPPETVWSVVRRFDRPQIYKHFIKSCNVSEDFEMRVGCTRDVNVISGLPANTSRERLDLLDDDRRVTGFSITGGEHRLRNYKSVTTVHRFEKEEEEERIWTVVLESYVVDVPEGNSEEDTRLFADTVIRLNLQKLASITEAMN
Change	relative binding score [%]
R111W	9.67
N177A	76.8
Q167H	78.4
Q31C	36.8
K168S	86.5
T106R	62
V121H	-9.53
I162D	-3.65
R46W	25.7
M176K	87.2
M176E	81
P83A	71.5
R32T	93.2
Q7L	87
V78Q	16.1
L166M	69.2

Sample 3
Target: PABPC1L2, full length, GST fusion (mouse, UniProt A0ABA7IW68)
Technique: RNAcompete
Molecule type: RNA
Sample: in vitro
Concentration: 20 nM
Notes: 7-mer, probes averaged, single round
Reference: mean of 7-mers
Direction: higher = stronger binding
Construct (chain): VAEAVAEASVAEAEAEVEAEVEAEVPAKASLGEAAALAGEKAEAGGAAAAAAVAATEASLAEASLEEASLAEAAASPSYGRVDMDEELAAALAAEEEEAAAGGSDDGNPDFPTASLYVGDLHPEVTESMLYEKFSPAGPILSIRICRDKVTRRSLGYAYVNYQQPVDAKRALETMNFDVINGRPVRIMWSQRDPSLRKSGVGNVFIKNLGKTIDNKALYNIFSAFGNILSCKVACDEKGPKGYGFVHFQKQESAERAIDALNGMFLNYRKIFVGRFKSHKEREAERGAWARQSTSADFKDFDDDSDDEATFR
Sequence	7-mer Z-score
AAGCGGA	0.419
AACCAUC	-0.161
UUGUGCG	-0.367
AGAUAGA	-0.0627
AAGUCCG	-0.0301
GUGACGU	-0.271
UCUGCUC	-0.49
UCCGGCU	-0.425
GAUACUA	-0.104
ACGGUGG	0.0388
GCAAUCA	0.233
ACCCAUG	-0.164
AGAUUAU	-0.104
CUAAACG	0.169
CCUAGGU	-0.226
UGACGUC	-0.28
AACUUUA	0.233
GUCGUGU	-0.411
GCUGGGA	0.209
GGCUGAC	0.138
CUACAGA	-0.0881
CGAUUAG	-0.238
ACACUAU	-0.0391
UGCGUCU	-0.333
AAUAGGA	0.385

Sample 4
Target: Histone acetyltransferase KAT6A, both winged helices, GST fusion (KAT6A, Homo sapiens, UniProt Q92794, residues 1-181)
Technique: protein binding microarray
Molecule type: double-stranded DNA, one strand shown
Sample: in vitro
Concentration: not given
Notes: 8-mer, flanks averaged, mean of 2 arrays, mostly near background
Reference: not given
Direction: higher = stronger binding
Residues (chain): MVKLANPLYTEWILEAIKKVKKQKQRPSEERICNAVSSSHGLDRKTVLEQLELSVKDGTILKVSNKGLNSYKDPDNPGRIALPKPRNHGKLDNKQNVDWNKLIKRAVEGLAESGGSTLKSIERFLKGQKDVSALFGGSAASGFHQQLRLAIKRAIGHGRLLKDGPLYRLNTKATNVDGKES
Sequence	E-score
AGGGCGCC	0.141
TGAAGCCA	-0.248
TGGCGAAA	-0.0485
GCGGATCC	0.2
AAAATATT	-0.0441
GCGCATAA	0.228
GAATTGAC	-0.153
CAGACCCG	0.209
CGGTCAAC	0.181
ACTTCTGG	-0.207
CAGGATGC	-0.102
CCCTGGAC	-0.127
CATGGACA	-0.216
AGATCGAC	-0.0429
GGGGTACC	-0.0342
ACCCGGTG	0.201
GCAATTAC	0.135
TATGCATA	-0.0846
AAGCTAGC	-0.0818
AAGACCTA	-0.0554
ATGGGCAG	0.00207
GCTTGTCA	0.108
CTTTTAGA	0.0379
CCGGCACG	0.221
CCGCTTTA	0.177

Sample 5
Target: RNA binding protein fox-1 homolog 2, RRM domain, GST-SBP tag (RBFOX2, Homo sapiens, UniProt O43251-10, residues 100-194)
Technique: RNA Bind-n-Seq
Molecule type: RNA
Sample: in vitro
Concentration: 365 nM
Notes: natural RNA segment, single round, ends assumed
Reference: no-protein control
Direction: higher = stronger binding
All sequences stand within: GGGAGUUCUACAGUCCGACGAUC … UGGAAUUCUCGGGUGCCAA
Residues (chain): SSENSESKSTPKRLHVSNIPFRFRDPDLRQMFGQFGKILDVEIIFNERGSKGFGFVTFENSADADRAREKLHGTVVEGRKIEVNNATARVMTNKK
Sequence	RBNS enrichment (R)
UAUCAUGUCAACCUGGCUUAUCAUUGUGAGCCCCUGAGGUCUUUCGGGUUCUCUGUAAUACUCAAGUCCUCUCUCAUUCUUACCUACCUCGACUCUUGAGAGGGAGGCUU	0.357
UGUAGGACUGCAGUUCUGAAUUUUGGGUUAAAGGUUUUGGCUGCUGUAAGAAUGUGAAUUUGAAUGUAUUUUGAAUUGUAAGAGCAAAAGAACGUUUUUGUACAAUUUUU	7.62
UCCGCCAGCCAUUGCUCUUGGCUCCCACUUCCUCUGCCAAGAUGCGUUAGCAGAUGGCCAUUCUGGUCAGCUCCCUGCCAGGUCAUAGGGUCACAUACCGUCAACUUCAC	0.561
CAUGAAGGAAAAGAAUAGGGAAAAGCUUUCAGCAGUUAUUUAGCCCUUACUCAAAAUCAGAUAAUUAACAAUGAAGGAAACUCUAAACUCCCCUUAUGGUCUACCAGUAA	0.339
CAAGUUCAAGGUUCACUCCCUAUAUGUGAUUAUAGGAAUUGUUUGUGGAAAUGGAUUAACAUACCCGUCUAUGCCUAAAAGAUAAUAAAACUGAAAUAUGUCUUCACAGG	0.481
CAUUCAACAAGUAUUUGCUAAACACUAACUUAAGCUAAUGCUAGGGUAGUGACUGAGAUGUAAAAAUAGAUUUUAGAAUUAAAACAAAAUCCAAGUCCUCACACCCCUGU	0.377
GGGGACUAGAGGACAGAAGGGGACGUUCCCUUCACCUGGGAAUUCUCACCCUGGUGUCAACAUGCUGUGCCUUUCUCUUUCUCUAUUUUUGUUGGUGACCUGGAUAGUGU	1.19
CUUUGCUGGCUUGUGCAGUGAUACUGAGAAAAUACAUGAACAGAAACUGCCCAGGUGGAACAGCACGUAACCUAGUGAGUGACUGUACUCCUUUCUAGGAAUGCUGAUUC	0.745
GCCGGGUGUGAGGGAAGUCAGACCUUGCAGGGCCCCAGGCCGCAGAAGAUUGCAUUUCACAGUCGUGGGGAAGCAGCUCUAACCAUAAGGAAGGCUGCUUCUCACCCUGC	1.81
ACGGAGCCUUGGGCUUCUGCGUGUUGCCUGACUGUACAAAAGUCUAGUCUCAAAGAUCAAGUUGGUCUGAGGAGCCGGAUGUGACUGUGGGUGUUGGCUGGGGCAUUAAA	0.717
AUUUUGAGUGCUGUUUCCUUUUUAGGAAAGAACAGCACUGUGGAAAUUUGCUUUUCCCCAUAGCAUGUUAGGAAGGAAGUACAGGUCGUUACCUAAGCUAGCGUGGGCUU	12
CUCCACUCCCACUCUGCCAGACACCCUGACACCCACCCAGGCUUUGAAGAGCAUGGAGGGGGAGCCUCAGAGCUGACAGUCCUGCUUAGAGCCCUUAAAAAGACUUGAAA	0.27
